Published values collected from several papers.
Every numbered part comes from another study and shows a few of its results, in no order.

Sample 1
Target: Protein max, full length (MAX, Homo sapiens, UniProt P61244-2, residues 1-151)
Method: protein-binding microarray
Molecule type: double-stranded DNA, one strand shown
Sample: in vitro
Tested at: not given
Notes: k-mer, scored over probes, only values ≥0.25
Direction: higher = stronger binding
`ACGTGGCT` gave an E-score of 0.45.
`CCGCGTGA` gave an E-score of 0.46.
For `CGTGCGTA`, the E-score was 0.317.
`GGTCACAC` gave an E-score of 0.268.
`AACCACCT` has an E-score of 0.265.
With `CAACGAGG` the E-score was 0.291.
The E-score of `AGCCACGC` is reported as 0.43.
With `CCGCCTGC` the E-score was 0.279.
The E-score of `GAAATCAC` is reported as 0.269.
The E-score of `CGCGTGTC` is reported as 0.456.
For `GTGTCACA`, the E-score was 0.251.
The E-score of `CGTGGCAC` is reported as 0.416.
For `CACGCGAA`, the E-score was 0.361.
`TGCCGGCA` gave an E-score of 0.323.
`GGGCACGA` gave an E-score of 0.284.
With `GTGCGCAC` the E-score was 0.394.

Sample 2
Target: RNA binding protein fox-1 homolog 2, RRM domain, GST-SBP tag (RBFOX2, Homo sapiens, UniProt O43251-10, residues 100-194)
Method: RNA Bind-n-Seq
Molecule type: RNA
Sample: in vitro
Tested at: 365 nM
Notes: natural RNA segment, single round, ends assumed
Baseline: no-protein control
Direction: higher = stronger binding
Residues (chain): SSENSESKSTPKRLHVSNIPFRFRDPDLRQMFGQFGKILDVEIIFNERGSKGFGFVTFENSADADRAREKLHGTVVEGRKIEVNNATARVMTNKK
`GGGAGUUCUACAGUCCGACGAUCUCAUCUUCUGCCAAGCAUUCAGGCAGAGCAGCUGUUAACUGUGAUUCAAAGUCAGAAAAACAUCAAGAACUUCUUUGAUGCAUAGGGUGUAUCAGCACUCAGCUCCCACAUGGAAUUCUCGGGUGCCAA` — result for “RBNS enrichment (R)”: 0.629.
`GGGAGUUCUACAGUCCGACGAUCCAGCACCUGAUGCCUUUUGUACUGAGGUAUGUAACUUUCUCCUUAUUUGACAAGUAGAAGUUAACUUACUUGUCAGGGAGGGCAGACGUUUUUUUGUUCUGUUUCGUUUUUGGAAUUCUCGGGUGCCAA`: “RBNS enrichment (R)” 0.295.
`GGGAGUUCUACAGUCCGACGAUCUGGGUUUUGGAGCUUUUAAAAAUGUUUGCUUUCAGGUAUUUUUACUCAUGUGAAGUGAUCUUGAUUCUUCUGAGGUUUUAAACUAAAAUGUUGCUUCCUGUUUUAGUGUCUGGAAUUCUCGGGUGCCAA`: “RBNS enrichment (R)” 4.21.
`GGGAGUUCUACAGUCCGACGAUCCUUUUUACUUUUUUCCCCUAACUUUAGCAAUGUAGUAUCUUGAGCCAUUAAUUUUUGGGUUUUUUUAAAAUCCAGAAGGUAUAUAGAAACCUUUUCAGAUUUUUCAUCUGUGGAAUUCUCGGGUGCCAA` — result for “RBNS enrichment (R)”: 0.631.
`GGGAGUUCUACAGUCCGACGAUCAGGUAGUGUUUUCAGUACCAUCAUCACUUCUGUCACUCACAGCAUAAUUGUGGAAGCAGAUUCAUUGCUAGUUUAGUUUCAUAUAUAAUAUAUACAGUAAUUGUAGGGUCUGGAAUUCUCGGGUGCCAA` — result for “RBNS enrichment (R)”: 0.6.
Under “RBNS enrichment (R)”, `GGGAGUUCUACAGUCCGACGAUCUUCUACACUUUGCAGAUUUUAUUUAGGAUUUAAUUCUUUAAAGACUAUAUUCAUUUAGUCACUAUAGUGGAUCUCUUCUACUGCAAGUAUUCAUCUGAUUUUUAAAUUAUUGGAAUUCUCGGGUGCCAA` is recorded as 0.467.
`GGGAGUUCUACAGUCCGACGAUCCAGUCCCAGCCAAGCCCCCAAUCCCAGCGGAGACUGUGCCCUGCUCAGAGCUCCCAAGCCUUCCCCCACCACCUCACUCAAGUGCCCCUGAAAUCCCUGCCAGACGGCUCUGGAAUUCUCGGGUGCCAA`: “RBNS enrichment (R)” 0.627.
`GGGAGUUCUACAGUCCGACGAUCAUGCCUGCUGCCUGCCUCUCUCCUAACAUGGUUCCAUCAAGUAGACACCCUUUGUAUUUGACCUCUUCCCAGUUCCUGCCCUGUUUCUGUAUCUUUACUUGAAAGUUGGGUGGAAUUCUCGGGUGCCAA` — result for “RBNS enrichment (R)”: 2.71.
Under “RBNS enrichment (R)”, `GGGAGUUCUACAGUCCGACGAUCCAGGCCACCUCCCCAGCAUUCCAGCCCCUCUGGUCGCUCCUGCCCACGGAGUCGUGGGGUGUGCUGGGAGCUCCACUCUGCUUCUCUGACUUCUGCCUGGAGACUUAGGGUGGAAUUCUCGGGUGCCAA` is recorded as 0.27.

Sample 3
Target: Interferon regulatory factor 3, full length, phosphomimetic (IRF3, Homo sapiens, UniProt Q14653, residues 1-427, S386D/S396D/S398D/S402D/T404D/S405D)
Chain of UniProt Q14653 (whole entry, unmodified, looked up): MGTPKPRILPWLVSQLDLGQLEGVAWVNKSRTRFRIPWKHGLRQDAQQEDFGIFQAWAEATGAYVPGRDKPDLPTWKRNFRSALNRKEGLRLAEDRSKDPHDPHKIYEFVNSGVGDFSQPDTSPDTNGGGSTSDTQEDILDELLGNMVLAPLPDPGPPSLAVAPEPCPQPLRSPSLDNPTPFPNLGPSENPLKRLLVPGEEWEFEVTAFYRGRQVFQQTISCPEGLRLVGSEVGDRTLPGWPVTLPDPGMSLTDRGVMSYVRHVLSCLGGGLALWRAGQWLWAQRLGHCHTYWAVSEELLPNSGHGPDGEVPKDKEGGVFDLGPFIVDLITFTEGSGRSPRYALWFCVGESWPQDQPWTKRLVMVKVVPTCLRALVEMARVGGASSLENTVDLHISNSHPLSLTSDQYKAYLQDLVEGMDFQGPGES
Method: protein-binding microarray
Molecule type: double-stranded DNA, one strand shown
Sample: in vitro
Tested at: 2540 nM top
Notes: 60-bp whole probe
With: salmon DNA 0.4 mg/ml
Baseline: random background probes
Direction: higher = stronger binding
All sequences stand within: GCCTAGCAC … GTCTTGATTCGCTTGACGCTGCTG
`TTAGGTATCGACTGTCGGTTAGTGCTA` — result for “fitted relative affinity”: 0.0688 z-score.
`GACCGACTGGGTTTCGGGACGTGCTAG` — result for “fitted relative affinity”: 1.73 z-score.
For `TTAGGATTCGACTATCGGTTAGTGCTA`, “fitted relative affinity” read 0.536 z-score.
`TTAGGTTTCGGGTTTCGGTTAGTGCTA`: “fitted relative affinity” 6.29 z-score.
For `TCATGTTCCCTCATCAGACTGTGCTAG`, “fitted relative affinity” read 0.918 z-score.
`GTCGATATCAGTTTCGAGACGTGCTAG` — result for “fitted relative affinity”: 4.31 z-score.
`TTAGGTTTCGGACTGGGTTCGTGCTAG`: “fitted relative affinity” 3.88 z-score.
`GACGGCATCCTTCTCCTGACGTGCTAG` — result for “fitted relative affinity”: 0.852 z-score.
`CAGATGGAATTAAGAAGATGGTGCTAG`: “fitted relative affinity” 0.438 z-score.
`TACGATCTCAGTTTCGAGACGTGCTAG` — result for “fitted relative affinity”: 2.44 z-score.
`TCATTTTTTTTTTCTGAACTGTGCTAG`: “fitted relative affinity” 1.87 z-score.
`TCATGGATATATATCATACTGTGCTAG`: “fitted relative affinity” 0.0853 z-score.
For `TTAGGTATCGGTTTGGGTTAGTGCTAG`, “fitted relative affinity” read 4.52 z-score.
`TTAGATATCGGGTATCGATAAGTGCTA` — result for “fitted relative affinity”: 0.27 z-score.
`TTAGGTCGCGGACTGGGTTAGTGCTAG`: “fitted relative affinity” -0.619 z-score.
Under “fitted relative affinity”, `GGGTTCAAGAAGTAGGAGAAGTGCTAG` is recorded as -0.343 z-score.
`GACGATTTCAGACTGGTGACGTGCTAG`: “fitted relative affinity” 0.872 z-score.
For `TTAGGTCTCGATTTCGGTTAGTGCTAG`, “fitted relative affinity” read 2.55 z-score.
`CTTGCTTGGTGTCTCTGGCCGTGCTAG` — result for “fitted relative affinity”: -0.587 z-score.
`GACGATTTCTGGACTGGAGACGTGCTA` — result for “fitted relative affinity”: 0.841 z-score.
For `TTAGGTTTCCTGATCCTTTAGTGCTAG`, “fitted relative affinity” read 3.78 z-score.
For `TTAAGTTCCGGTTTCGGTTAGTGCTAG`, “fitted relative affinity” read 8.07 z-score.
`TTAGGACGGGGGTTTCGGTTAGTGCTA` — result for “fitted relative affinity”: 2.81 z-score.
For `CTTTTTATGCTTTCTTTAACTGTGCTA`, “fitted relative affinity” read 3.86 z-score.
Under “fitted relative affinity”, `GGAGGGGGGCGGGGCGGTGGGTGCTAG` is recorded as 0.0875 z-score.

Sample 4
Target: RING finger protein unkempt homolog, zinc fingers 1-6, GST-SBP tag (UNK, Homo sapiens, UniProt Q9C0B0, residues 30-357)
Method: RNA Bind-n-Seq
Molecule type: RNA
Sample: in vitro
Tested at: not given
Notes: RNA with constant flanks, ends assumed
Baseline: input RNA pool
Direction: higher = stronger binding
Residues (chain): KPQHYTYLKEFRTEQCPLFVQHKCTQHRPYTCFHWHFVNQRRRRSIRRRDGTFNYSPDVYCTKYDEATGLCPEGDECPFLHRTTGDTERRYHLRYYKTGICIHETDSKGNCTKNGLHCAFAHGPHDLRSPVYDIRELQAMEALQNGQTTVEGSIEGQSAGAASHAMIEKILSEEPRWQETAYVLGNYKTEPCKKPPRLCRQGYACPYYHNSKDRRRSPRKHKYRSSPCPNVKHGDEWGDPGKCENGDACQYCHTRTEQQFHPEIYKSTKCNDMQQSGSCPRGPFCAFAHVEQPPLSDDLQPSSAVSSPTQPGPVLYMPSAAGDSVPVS
For `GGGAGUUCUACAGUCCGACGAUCUGCUCUUACUUGAUUUGCCAAAUGCCUCCUGCUUCUCGUUAUAGGACUGAGUGAGGUCCUCACCGCUCUGUGCUCUGGGCAGCUCUGAGCUCUCAGCCCUGUUGCUUUCAAUGUCAGUCACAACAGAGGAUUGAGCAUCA`, the bound/input enrichment was 0.329 ratio.
The bound/input enrichment of `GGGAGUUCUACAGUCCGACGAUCUAUUCUUCUGGGAGCAGAAAAGGGUUUUUGUCAGGCUUGCUAGAUAACAUCAAACAAGAAUCCGCCAAAAACAAAGAGAUGAAAGAAAGUAUAAAAAAGUUCCGAGAUGAGGCCAAGAAGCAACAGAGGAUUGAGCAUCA` is reported as 0.406 ratio.
With `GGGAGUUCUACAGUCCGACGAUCACAGUUACUUAAUUUCUAGAGUUCAGGCCUCUGGGAUCAACCCCAGACUGGGCCAGAAUGUCCGUGAAGGUUUUAUUGUGCCCGGUUGGAGGAUAACGUUCUUUGGGUACUUUUUGUGGGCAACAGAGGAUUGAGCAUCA` the bound/input enrichment was 0.27 ratio.
With `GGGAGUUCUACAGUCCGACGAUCGAUUAUCUUCGUUCAAAUGGCUAUGAAGAGGCAUAUUCAGUUUUUAAAAAGGAAGCUGAAUCCGAUGUGAAUGAAGAAUUAGAUAAAAAGUAUGCUGGUCUUUUGGAAAAAAAAUGGACACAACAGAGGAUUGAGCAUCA` the bound/input enrichment was 1.59 ratio.
For `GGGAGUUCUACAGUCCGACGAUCCUGAAGGUUCUAGGCACAGCUUUUGAUCCCUUCUUAGGAGGAAAGAACUUUGAUGAGAAGCCCGCCGAACAUUUUUGUGCUGAAUUUAAAACCAAGUACAAAUUGGAUGCAAAAUCCAAACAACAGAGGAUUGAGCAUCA`, the bound/input enrichment was 0.0968 ratio.
`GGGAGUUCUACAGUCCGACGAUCCAGCAGUUGUAUUCUUUAUUAGCUUGGUAGAUCAUUUUCUCUCGCUCUUUUUUUUAAUACCCGCAACUUUCAUCCUUUGAAACGUGUGCUGAAAAAGAAGAAUCAGCAAAUACUACUGAACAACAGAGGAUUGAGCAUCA` has a bound/input enrichment of 0.432 ratio.
The bound/input enrichment of `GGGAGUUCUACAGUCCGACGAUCCCCUGGGGUAUGACGUGGCAUGGGGGAGCAAGCAGUCCAGGGGACCUCUUGGAAACAGCAUCCGGCUUUUUCCCUUUUCAGUAACAUUGUUCGGAACUACUUGUCAAUGUGUUUGAGGUGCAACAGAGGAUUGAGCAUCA` is reported as 0.292 ratio.
With `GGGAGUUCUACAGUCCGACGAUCCUGUAUCUUUCUGCUAUUCGAAAGAUCCCAGCCUUGACUGAAAAUGAUCCUGAAACUUGGACCGUUUGUAAUUUUUCUGUGGAUCAUGAUAGUGCUCCUCUGAACAAUCGAUGUGUCCGUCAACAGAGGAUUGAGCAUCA` the bound/input enrichment was 0.113 ratio.
The bound/input enrichment of `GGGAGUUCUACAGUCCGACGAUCAGGUGGCAGAGAGGCUGGGGAGUUGCCCAUCGCUGCAGCCAGCUGCACAGUCUCAGCCGCCCCGCACAGCAGAAUCCGGGGCCACUUCAGAAUGUGAAAGGAUGCACGGUUGUAUUCACACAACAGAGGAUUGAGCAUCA` is reported as 0.148 ratio.
The bound/input enrichment of `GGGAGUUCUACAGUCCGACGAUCUCUUGUAGAAGAUGGACUCUGAAAAACAUUCCAGGAAACCAUGGCAGCAUGGAGAGCCUCUCCGUGAUUGUGUCUGCAUUGUUAUUGUGGAAGAUUUACCUUUUCUGUUGUACGUAAAGCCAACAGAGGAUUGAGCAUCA` is reported as 0.12 ratio.
`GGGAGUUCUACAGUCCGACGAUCUUACGUUUAAGACCUAGCCUUUGAUGUGGUAUUUAUGUAACGUUUGUACAGUGAUUUACUCUCCGUUUGUUACCUUUAUCACCUGUACAAUUGCACUAUUUAAAUGUACUCCUUCUUAAUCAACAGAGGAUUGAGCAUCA` has a bound/input enrichment of 0.501 ratio.
